Experimental data collected from several papers.
Compare with care: the assays were run in different laboratories. ± marks the error that the study gave.

Compound	assay	test system	setting	tissue uptake [%ID/g]
CSCC[C@H](NC(=O)CNC(=O)[C@H](CCCCN)NC(=O)[C@H](CC(C)C)NC(=O)[C@@H]1CCCN1C(=O)[C@H](CO)NC(=O)[C@H](Cc1c[nH]cn1)NC(=O)[C@H](Cc1c[nH]c2ccccc12)NC(=O)[C@H](CCCNC(=N)N)NC(=O)[C@H](CC(C)C)NC(=O)[C@H](CCCNC(=N)N)NC(=O)[C@H](Cc1c[nH]c2ccccc12)NC(=O)[C@H](CS)NC(=O)CCCCCNC(=O)CN1CCN(CC(=O)O)CCN(CC(=O)O)CCN(CC(=O)O)CC1)C(=O)O [copper-64 labelled]	ex vivo biodistribution	C57BL/6J mice bearing B16-F10 tumours, heart	intravenous, 1.85 MBq, 0.5 h	2.2
C[C@H](O)[C@@H](NC(=O)[C@H]1CCCN1C(=O)[C@@H](CCCCN)NC(=O)[C@@H](CO)NC(=O)[C@@H](Cc1ccc(O)cc1)NC(=O)[C@@H](CC(N)=O)NC(=O)CCOCCOCCOCCNC(=O)CN1CCN(CC(=O)O)CCN(CC(=O)O)CCN(CC(=O)O)CC1)C(=O)N[C@H](CC(=O)O)C(=O)N[C@H](CCCNC(=N)N)C(=O)N[C@H](CCC(N)=O)C(=O)N[C@H](Cc1ccc(O)cc1)C(=O)N[C@H](Cc1c[nH]cn1)C(=O)N[C@H](Cc1ccccc1)C(N)=O [copper-64 labelled]		C57BL/6J mice, pancreas	intravenous, 1.85 MBq, 0.6667 h, radiolabelled	0.33 ± 0.01
CC[C@H](C)[C@H](NC(=O)[C@H](CCCNC(=N)N)NC(=O)[C@H](CCCCN)NC(=O)[C@H](Cc1ccc(O)cc1)NC(=O)[C@H](CC(=O)O)NC(=O)[C@H](C)NC(=O)CNC(=O)CCOCCOCCOCCNC(=O)CN1CCN(CC(=O)O)CCN(CC(=O)O)CCN(CC(=O)O)CC1)C(=O)N[C@H](C(=O)N[C@H](C(=O)N[C@@H](CCCCN)C(=O)N[C@H](C(=O)N[C@@H](CC(N)=O)C(N)=O)C(C)C)C(C)C)[C@@H](C)O [copper-64 labelled]	ex vivo gamma counting	C57BL/6J male mice, B16-F10 tumour, muscle	intravenous, 1.85 MBq, 5 min	1.7 ± 0.476
CC[C@H](C)[C@H](NC(=O)[C@@H](Cc1c[nH]c2ccccc12)NC(=O)[C@@H]1CCCN1C(=O)[C@H](CCCCN)NC(=O)[C@H](CCCCN)NC(=O)CCNC(=O)CCNC(=O)CN1CCN(CC(=O)O)CCN(CC(=O)O)CCN(CC(=O)O)CC1)C(=O)N[C@@H](C[Si](C)(C)C)C(=O)O [gallium-68 labelled]	ex vivo biodistribution	nude mice, HT-29 xenograft, prostate	90 min, added: levocabastine 0.5 µmol	2.5 ± 0.43
CC[C@H](C)[C@H](NC(=O)[C@H](CCCNC(=N)N)NC(=O)[C@H](CCCCN)NC(=O)[C@H](Cc1ccc(O)cc1)NC(=O)[C@H](CC(=O)O)NC(=O)[C@H](C)NC(=O)CNC(=O)CCOCCOCCOCCNC(=O)CN1CCN(CC(=O)O)CCN(CC(=O)O)CCN(CC(=O)O)CC1)C(=O)N[C@H](C(=O)N[C@@H](CC(C)C)C(=O)N[C@@H](CCCCN)C(=O)N[C@H](C(=O)N[C@@H](CC(N)=O)C(N)=O)C(C)C)[C@@H](C)O [copper-64 labelled]	ex vivo gamma counting	C57BL/6J male mice, B16-F10 tumour, muscle	intravenous, 1.85 MBq, 20 min	0.939 ± 0.285
CC[C@H](C)[C@H](NC(=O)[C@H](CCCCN)NC(=O)CNC(=O)[C@H](CC(C)C)NC(=O)[C@H](Cc1ccccc1)NC(=O)[C@H](CCCCN)NC(=O)[C@H](CO)NC(=O)[C@H](Cc1ccccc1)NC(=O)[C@H](Cc1c[nH]c2ccccc12)NC(=O)[C@H](CCC(N)=O)NC(=O)[C@@H](NC(=O)[C@H](Cc1ccccc1)NC(=O)CCCCCNC(=O)CN1CCN(CC(=O)O)CCN(CC(=O)O)CCN(CC(=O)O)CC1)C(C)C)C(=O)N[C@@H](CCC(=O)O)C(=O)N1CCC[C@H]1C(=O)N[C@@H](CC(=O)O)C(=O)N[C@H](C(=O)N[C@@H](CO)C(=O)N[C@@H](CCC(N)=O)C(=O)N[C@H](C(=O)N[C@@H](CCC(N)=O)C(=O)N[C@@H](CC(=O)O)C(=O)N1CCC[C@H]1C(=O)N[C@@H](CC(N)=O)C(=O)N[C@@H](CC(=O)O)C(=O)N[C@@H](CCC(N)=O)C(=O)N[C@@H](Cc1ccc(O)cc1)C(=O)N[C@@H](CCC(=O)O)C(=O)N1CCC[C@H]1C(=O)N[C@@H](Cc1ccccc1)C(=O)O)C(C)C)C(C)C [copper-64 labelled]		C57BL/6 mice, male, tumour-free, small intestine	4 h	9.98 ± 1.7
CC(C)C[C@@H](NC(=O)[C@@H](CCCNC(=N)N)NC(=O)[C@@H](Cc1c[nH]cn1)NC(=O)[C@@H](Cc1c[nH]c2ccccc12)NC(=O)[C@@H](Cc1c[nH]cn1)NC(=O)[C@@H](Cc1ccccc1)NC(=O)[C@H](NC(=O)[C@@H](Cc1ccc(O)cc1)NC(=O)CNC(=O)CNC(=O)CCOCCOCCOCCNC(=O)CN1CCN(CC(=O)O)CCN(CC(=O)O)CC1)[C@H](C)O)C(=O)N[C@H](CC(N)=O)C(=O)N1CCC[C@@H]1C(=O)O [gallium-68 labelled]	gamma counting	C57BL/6 mice, male, bone	intravenous, 1.85 MBq, 30 min	0.65 ± 0.16
CCCC[C@H]1C(=O)N(C)[C@@H](CCCC)C(=O)N[C@@H](CCCNC(=O)CN2CCN(CC(=O)O)CCN(CC(=O)O)CCN(CC(=O)O)CC2)C(=O)N[C@H](C(=O)NCC(N)=O)CSCC(=O)N[C@@H](Cc2ccc(O)cc2)C(=O)N(C)[C@@H](C)C(=O)N[C@@H](CC(N)=O)C(=O)N2CCC[C@H]2C(=O)N[C@@H](Cc2c[nH]cn2)C(=O)N[C@@H](CC(C)C)C(=O)N(C)CC(=O)N[C@@H](Cc2c[nH]c3ccccc23)C(=O)N[C@@H](CO)C(=O)N[C@@H](Cc2c[nH]c3ccccc23)C(=O)N1C [gallium-68 labelled]		NOD/SCID mice with CHO-hPD-L1 xenograft, brain	30 min post injection	0.42 ± 0.05

Repeated from above:
Compound	assay	test system	setting	tissue uptake [%ID/g]
CC[C@H](C)[C@H](NC(=O)[C@@H](Cc1c[nH]c2ccccc12)NC(=O)[C@@H]1CCCN1C(=O)[C@H](CCCCN)NC(=O)[C@H](CCCCN)NC(=O)CCNC(=O)CCNC(=O)CN1CCN(CC(=O)O)CCN(CC(=O)O)CCN(CC(=O)O)CC1)C(=O)N[C@@H](C[Si](C)(C)C)C(=O)O [gallium-68 labelled]	ex vivo biodistribution	nude mice, HT-29 xenograft, prostate	90 min, added: levocabastine 0.5 µmol	2.5 ± 0.43
